Results from different studies.
Lines come from different studies, so protocols differ.
Matrix: plasma

| Structure (SMILES) | test system | conditions | Tmax [min] |
| --- | --- | --- | --- |
| OC1(C(F)(F)F)CCN(c2nc(Nc3ccnc(C(F)(F)F)c3)nc(-c3cccc(C(F)(F)F)n3)n2)C1 (centres unmarked) | Sprague-Dawley rat | oral, 10 mg/kg | 340 |
| CCC(CC)n1c(Cc2ccco2)nc2cc(C(=O)N[C@@H](CC(=O)O)c3ccccc3)ccc21 | male Sprague-Dawley rat | intravenous, 1 mg/kg | 4.8 |
| Cc1cccc(C)c1CNc1cc(C(=O)N2CCC2)cn2c(C)c(C)nc12 | male Sprague-Dawley rat | oral, 10 mg/kg | 15 |
| O=c1c(-c2ccc(Cl)c(CN3CCOCC3)c2)coc2cc(O)ccc12 | male Sprague-Dawley rat | oral, 10 mg/kg | 15 |
| CNC(=O)C1CCCN(C(=O)C2CC3CCC2N3C(=O)[C@@H]2C[C@@H](O)CN2C(=O)NCc2cccc(Cl)c2F)C1 (mixture of isomers) | rat | oral, 8 mg/kg | 49.8 |
| CCCN(C)c1cc(C(F)(F)F)nc(SCCC(=O)NCc2ccco2)n1 | male Wistar rat | intraperitoneal, 25 mg/kg, single dose | ≤ 2 |
| COC1C(c2ccc(Cl)c(Cc3ccc(OC4CCOC4)cc3)c2)OC(CO)C(O)C1O (centres unmarked) | Sprague-Dawley rat | oral, 5 mg/kg | 25.2 |
| O=C(C1CCN(c2nnnn2-c2ccccc2)CC1)N1CCCc2ccccc21 | male Sprague-Dawley rat | oral, 5 mg/kg | 30 |
| C/C(N)=N/C(=N\S(=O)(=O)c1ccc(C(F)(F)F)cc1)N1C[C@H](c2ccccc2)C(c2ccc(Cl)cc2)=N1 | male Sprague-Dawley rat | oral, 30 mg/kg | 240 |
| CCC(CC)n1c(Cc2cccs2)nc2cc(C(=O)N[C@@H](CC(=O)O)c3ccccc3)ccc21 | male Sprague-Dawley rat | intraperitoneal, 10 mg/kg | 19.8 |
| CN1CCC[C@@H]1C(=O)N[C@@H](Cc1ccc(-c2ccccc2)cc1)B(O)O | male Sprague-Dawley rat | intravenous, 1 mg/kg | 4.8 |
| CC(=Nc1ccc(N)cc1)N(C)C | male Sprague-Dawley rat | oral, 200 mg/kg | 81.6 |
| Cc1cccc(Cn2ncc3c4cc(F)c(CN(C)C)cc4n(C)c3c2=O)n1 | Sprague-Dawley rat | oral, 10 mg/kg | 30 |
| C=C(NC(=O)c1csc(-c2nc3c(cc2O)-c2nc(cs2)C(=O)NC(C(C)O)C(=O)NC(=C(C)OC)c2nc(cs2)C(=O)NC2c4nc(cs4)C(=O)NC(COC(=O)c4c5c6c(cccc6n4O)COC(=O)C(OC4CC(C)(O)C(N(C)C)C(C)O4)C2OC5)c2nc-3cs2)n1)C(N)=O (centres unmarked) | Sprague-Dawley rat | intravenous, 6 mg/kg, single dose, infusion | 5.4 |

For quick reference, copied from above:
| Structure (SMILES) | test system | conditions | Tmax [min] |
| --- | --- | --- | --- |
| C/C(N)=N/C(=N\S(=O)(=O)c1ccc(C(F)(F)F)cc1)N1C[C@H](c2ccccc2)C(c2ccc(Cl)cc2)=N1 | male Sprague-Dawley rat | oral, 30 mg/kg | 240 |
| CCC(CC)n1c(Cc2cccs2)nc2cc(C(=O)N[C@@H](CC(=O)O)c3ccccc3)ccc21 | male Sprague-Dawley rat | intraperitoneal, 10 mg/kg | 19.8 |
